{"data": "Results gathered from unrelated publications", "note": "Each line is one published result; not all experiments were run side by side. ± gives the spread as reported."}
{"Compound": "CC(C)(CCCC/C=C/CCCCCC(C)(C)C(=O)O)C(=O)O", "test": "mass spectrometry", "system": "C57BL/6 mouse, liver", "conditions": "oral, 30 mg/kg, 1 h, single dose", "measurement": "concentration", "value": "15600 ng/g"}
{"Compound": "CCc1nn(C)c2nc(-c3ccc(C(=O)O)cc3)nc(NCc3ccccc3)c12", "system": "male CD-1 mouse, plasma", "conditions": "intravenous, 1 mg/kg, 4 h", "measurement": "concentration", "value": "92 ng/mL"}
{"Compound": "CCCCC[C@@H]1NC(=O)[C@@H](C)N(C)C(=O)[C@H](CCCCC)N(C)C(=O)[C@@H](C)N(C)C(=O)[C@H](CCCCC)NC(=O)[C@@H](C)N(C)C(=O)[C@H](CCCCC)N(C)C(=O)[C@@H](C)N(C)C1=O", "test": "PAMPA", "conditions": "500 µM, pH 7.4, UV/ELSD/MS detection", "measurement": "log Papp", "value": -5.41}
{"Compound": "CN1Cc2cc(Cl)ccc2-n2c(nnc2C2CCN(c3cccc(F)n3)CC2)C1", "test": "mass spectrometry", "system": "male Sprague-Dawley rat, brain", "conditions": "intravenous, 0.03 mg/kg, 5 min", "measurement": "concentration", "value": "7.2 ng/mL"}
{"Compound": "CC[C@H](C)[C@H](NC(=O)[C@H](CCCNC(=N)N)NC(=O)[C@H](CCCCN)NC(=O)[C@H](Cc1ccc(O)cc1)NC(=O)[C@H](CC(=O)O)NC(=O)[C@H](C)NC(=O)CNC(=O)CCOCCOCCOCCNC(=O)CN1CCN(CC(=O)O)CCN(CC(=O)O)CCN(CC(=O)O)CC1)C(=O)N[C@H](C(=O)N[C@@H](CC(C)C)C(=O)N[C@@H](CCCCN)C(=O)N[C@H](C(=O)N[C@@H](CC(N)=O)C(N)=O)C(C)C)[C@@H](C)O [copper-64 labelled]", "test": "ex vivo gamma counting", "system": "C57BL/6J male mice, B16-F10 tumour, kidney", "conditions": "intravenous, 1.85 MBq, 20 min", "measurement": "tissue uptake", "value": "14 ± 6.44 %ID/g"}
{"Compound": "C(#Cc1cncc(OC[C@@H]2CCN2)c1)c1ccccc1", "system": "male Sprague-Dawley rat, plasma", "conditions": "oral, 75 mg/kg, 24 h", "measurement": "concentration", "value": "60 ng/mL"}
{"Compound": "CC(C)C[C@@H](NC(=O)[C@@H](CCCNC(=N)N)NC(=O)[C@@H](Cc1c[nH]cn1)NC(=O)[C@@H](Cc1c[nH]c2ccccc12)NC(=O)[C@@H](Cc1c[nH]cn1)NC(=O)[C@@H](Cc1ccccc1)NC(=O)[C@H](NC(=O)[C@@H](Cc1ccc(O)cc1)NC(=O)CNC(=O)CNC(=O)CCOCCOCCOCCNC(=O)CN1CCN(CC(=O)O)CCN(CC(=O)O)CC1)[C@H](C)O)C(=O)N[C@H](CC(N)=O)C(=O)N1CCC[C@@H]1C(=O)O [gallium-68 labelled]", "test": "OLINDA/EXM", "system": "adult male human, LLI wall", "conditions": "extrapolated from C57BL/6 mice", "measurement": "organ absorbed dose", "value": "0.0106 ± 5.77e-05 mSv/MBq"}
{"Compound": "CC[C@H](C)[C@H](NC(=O)[C@H](CCCCN)NC(=O)CNC(=O)[C@H](CC(C)C)NC(=O)[C@H](Cc1ccccc1)NC(=O)[C@H](CCCCN)NC(=O)[C@H](CO)NC(=O)[C@H](Cc1ccccc1)NC(=O)[C@H](Cc1c[nH]c2ccccc12)NC(=O)[C@H](CCC(N)=O)NC(=O)[C@@H](NC(=O)[C@H](Cc1ccccc1)NC(=O)CCCCCNC(=O)CN1CCN(CC(=O)O)CCN(CC(=O)O)CCN(CC(=O)O)CC1)C(C)C)C(=O)N[C@@H](CCC(=O)O)C(=O)N1CCC[C@H]1C(=O)N[C@@H](CC(=O)O)C(=O)N[C@H](C(=O)N[C@@H](CO)C(=O)N[C@@H](CCC(N)=O)C(=O)N[C@H](C(=O)N[C@@H](CCC(N)=O)C(=O)N[C@@H](CC(=O)O)C(=O)N1CCC[C@H]1C(=O)N[C@@H](CC(N)=O)C(=O)N[C@@H](CC(=O)O)C(=O)N[C@@H](CCC(N)=O)C(=O)N[C@@H](Cc1ccc(O)cc1)C(=O)N[C@@H](CCC(=O)O)C(=O)N1CCC[C@H]1C(=O)N[C@@H](Cc1ccccc1)C(=O)O)C(C)C)C(C)C [copper-64 labelled]", "system": "GZMB-/- mice, CT26 tumour-bearing, bone", "conditions": "2 h, checkpoint inhibitor-treated", "measurement": "tissue uptake", "value": "0.49 ± 0.05 %ID/g"}
{"Compound": "O=C1NC2(CC2)COc2ncc(F)cc2[C@H]2COCCN2c2ccn3ncc1c3n2", "system": "Sprague-Dawley rat, female, kidneys", "conditions": "oral, 20 mg/kg/day, 4 weeks dosing, end of recovery", "measurement": "organ-to-brain weight ratio", "value": "108 ± 8.55%"}
{"note": "Some of these lines once more:"}
{"Compound": "CC(C)C[C@@H](NC(=O)[C@@H](CCCNC(=N)N)NC(=O)[C@@H](Cc1c[nH]cn1)NC(=O)[C@@H](Cc1c[nH]c2ccccc12)NC(=O)[C@@H](Cc1c[nH]cn1)NC(=O)[C@@H](Cc1ccccc1)NC(=O)[C@H](NC(=O)[C@@H](Cc1ccc(O)cc1)NC(=O)CNC(=O)CNC(=O)CCOCCOCCOCCNC(=O)CN1CCN(CC(=O)O)CCN(CC(=O)O)CC1)[C@H](C)O)C(=O)N[C@H](CC(N)=O)C(=O)N1CCC[C@@H]1C(=O)O [gallium-68 labelled]", "test": "OLINDA/EXM", "system": "adult male human, LLI wall", "conditions": "extrapolated from C57BL/6 mice", "measurement": "organ absorbed dose", "value": "0.0106 ± 5.77e-05 mSv/MBq"}
